Published values of several laboratories.
Parts stem from different laboratories: compare values within a part only.
Sequence of UniProt Q8TDC3 (whole entry, looked up): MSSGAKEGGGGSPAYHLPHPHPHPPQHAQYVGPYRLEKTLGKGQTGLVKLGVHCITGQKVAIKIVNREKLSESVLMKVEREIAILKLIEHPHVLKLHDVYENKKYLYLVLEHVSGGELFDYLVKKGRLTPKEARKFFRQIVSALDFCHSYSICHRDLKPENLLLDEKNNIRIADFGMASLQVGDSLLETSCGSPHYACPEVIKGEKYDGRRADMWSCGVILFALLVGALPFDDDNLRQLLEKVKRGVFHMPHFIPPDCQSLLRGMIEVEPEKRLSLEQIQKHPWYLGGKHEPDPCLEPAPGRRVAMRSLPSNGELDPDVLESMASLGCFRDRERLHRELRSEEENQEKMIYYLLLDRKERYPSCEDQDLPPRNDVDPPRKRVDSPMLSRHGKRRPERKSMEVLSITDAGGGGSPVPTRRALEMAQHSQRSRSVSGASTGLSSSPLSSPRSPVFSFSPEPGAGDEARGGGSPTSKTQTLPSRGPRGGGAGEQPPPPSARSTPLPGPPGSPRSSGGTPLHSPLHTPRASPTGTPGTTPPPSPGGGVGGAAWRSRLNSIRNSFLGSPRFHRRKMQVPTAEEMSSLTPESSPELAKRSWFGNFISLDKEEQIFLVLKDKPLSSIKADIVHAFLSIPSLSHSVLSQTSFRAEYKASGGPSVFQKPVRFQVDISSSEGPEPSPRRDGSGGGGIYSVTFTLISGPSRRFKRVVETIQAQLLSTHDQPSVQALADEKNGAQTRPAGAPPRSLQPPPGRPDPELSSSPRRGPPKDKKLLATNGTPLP

Series 1
Target: Eukaryotic initiation factor 4A-I (EIF4A1, Homo sapiens, UniProt P60842, residues 1-406, full length assumed)
Sequence of UniProt P60842 (whole entry, looked up): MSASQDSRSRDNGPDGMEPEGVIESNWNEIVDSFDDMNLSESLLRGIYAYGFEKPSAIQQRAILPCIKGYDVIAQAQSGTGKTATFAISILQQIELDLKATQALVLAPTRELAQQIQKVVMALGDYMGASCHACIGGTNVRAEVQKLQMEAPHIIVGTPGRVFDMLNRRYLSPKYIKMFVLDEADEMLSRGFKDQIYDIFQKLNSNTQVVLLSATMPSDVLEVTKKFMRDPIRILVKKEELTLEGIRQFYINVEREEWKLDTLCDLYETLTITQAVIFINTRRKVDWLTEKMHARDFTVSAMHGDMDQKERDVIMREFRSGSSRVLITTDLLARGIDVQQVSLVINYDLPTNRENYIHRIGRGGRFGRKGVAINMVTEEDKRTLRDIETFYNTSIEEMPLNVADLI
Method: RNA Bind-n-Seq
Molecule type: RNA
Matrix: in vitro
Tested at: 15 pmol
Notes: 4-mer, random 30-nt RNA, single round
With: DMSO vehicle, 2 mM AMP-PNP
Relative to: input library
Direction: higher = stronger binding
| Sequence | 4-mer enrichment [fold] |
| --- | --- |
| UACG | 0.875 |
| GGAA | 1.21 |
| AGUG | 0.849 |
| GAAC | 1.04 |
| UAAG | 0.788 |
| CCCG | 1.14 |
| UCCU | 1.11 |
| CCGG | 0.821 |

Series 2
Target: Transcriptional repressor CTCF (CTCF, Homo sapiens, UniProt P49711, residues 1-727, full length assumed)
Sequence of UniProt P49711 (whole entry, looked up): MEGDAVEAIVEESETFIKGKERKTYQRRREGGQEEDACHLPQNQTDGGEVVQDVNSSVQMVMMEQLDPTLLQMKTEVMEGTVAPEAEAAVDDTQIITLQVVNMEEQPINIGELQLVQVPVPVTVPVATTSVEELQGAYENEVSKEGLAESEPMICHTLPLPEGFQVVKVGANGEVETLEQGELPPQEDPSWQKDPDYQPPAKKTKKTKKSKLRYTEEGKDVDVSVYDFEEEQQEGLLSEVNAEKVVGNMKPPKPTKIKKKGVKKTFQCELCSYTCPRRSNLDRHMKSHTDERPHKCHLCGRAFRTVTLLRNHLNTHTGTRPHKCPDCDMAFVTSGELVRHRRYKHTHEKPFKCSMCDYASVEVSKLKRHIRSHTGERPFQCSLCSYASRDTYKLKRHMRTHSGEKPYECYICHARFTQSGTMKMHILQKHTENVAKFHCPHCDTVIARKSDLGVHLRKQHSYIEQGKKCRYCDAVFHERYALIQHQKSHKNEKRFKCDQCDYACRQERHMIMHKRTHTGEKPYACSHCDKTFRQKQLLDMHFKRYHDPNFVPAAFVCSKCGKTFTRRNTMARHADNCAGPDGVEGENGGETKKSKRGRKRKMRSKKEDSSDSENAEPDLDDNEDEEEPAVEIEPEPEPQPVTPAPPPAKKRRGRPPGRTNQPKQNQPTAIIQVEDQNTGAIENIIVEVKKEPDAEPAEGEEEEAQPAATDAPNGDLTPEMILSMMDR
Method: protein-binding microarray
Molecule type: double-stranded DNA, one strand shown
Matrix: in vitro
Tested at: not given
Notes: k-mer, scored over probes, only values ≥0.25
Direction: higher = stronger binding
| Sequence | E-score |
| --- | --- |
| AATAATTG | 0.279 |
| ACATGTGG | 0.252 |
| ACATATAT | 0.368 |
| GCGCTAAC | 0.256 |
| ATGCGCAA | 0.42 |
| AATATCAT | 0.309 |
| AGTATAAA | 0.336 |
| GTGGTTAA | 0.288 |

Series 3
Target: Interferon regulatory factor 7, full length, phosphomimetic (IRF7, Homo sapiens, UniProt Q92985, residues 1-503, S471D/S472D/S475D/S476D/S477D/S483D/S484D/S487D)
Method: protein-binding microarray
Molecule type: double-stranded DNA, one strand shown
Matrix: in vitro
Tested at: 2200 nM top
Notes: 60-bp whole probe
With: salmon DNA 0.4 mg/ml
Relative to: random background probes
Direction: higher = stronger binding
All sequences stand within: GCCTAGCAC … GTGCTAGGTCTTGATTCGCTTGACGCTGCTG
Residues (chain): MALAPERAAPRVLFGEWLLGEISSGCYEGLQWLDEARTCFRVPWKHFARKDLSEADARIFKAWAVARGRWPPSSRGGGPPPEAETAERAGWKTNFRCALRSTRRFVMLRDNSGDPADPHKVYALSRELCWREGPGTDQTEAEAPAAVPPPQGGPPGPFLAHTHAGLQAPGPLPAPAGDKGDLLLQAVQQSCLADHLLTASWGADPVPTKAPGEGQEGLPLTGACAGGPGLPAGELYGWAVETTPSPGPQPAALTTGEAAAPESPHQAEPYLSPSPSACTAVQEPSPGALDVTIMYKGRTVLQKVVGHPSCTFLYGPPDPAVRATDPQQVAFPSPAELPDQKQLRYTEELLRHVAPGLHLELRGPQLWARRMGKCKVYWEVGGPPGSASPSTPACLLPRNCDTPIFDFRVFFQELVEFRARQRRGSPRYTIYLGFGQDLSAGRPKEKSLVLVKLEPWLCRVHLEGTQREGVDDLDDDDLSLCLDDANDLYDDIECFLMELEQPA
| Sequence | fitted relative affinity [z-score] |
| --- | --- |
| TTAGGTTTTGGTTCCGGTTA | 2.89 |
| TAGTCTCTTCTGCAGCCTTT | 0.882 |
| GACGGTTTCGGCCTCGGGAC | 3.2 |
| TTATATACCTGTATATCTTC | 1.02 |
| TTAGGTATCCTTCTGCTTTA | 0.988 |
| GTGTGTTTGTGTGTGTATGT | 1.58 |
| ATTGAGAATTCCACTCCGCT | 0.827 |
| GACGGTTTCGGACTTGGGAC | 3.25 |

Further values, each from its own experiment
| Structure (SMILES) | target | read-out | action | tested at | relative to | endpoint | value |
| --- | --- | --- | --- | --- | --- | --- | --- |
| CN(C)CCCn1cc(C2=C(c3c[nH]c4ccccc34)C(=O)NC2=O)c2ccccc21 | Serine/threonine-protein kinase BRSK1 (BRSK1, Homo sapiens, UniProt Q8TDC3) | enzyme activity | inhibitor | 0.5 µM | control | remaining activity | 76.9% |
